Assay results gathered from unrelated publications.
Compare with care: the assays were run in different laboratories.
UniProt Q62868, sequence (whole entry, looked up): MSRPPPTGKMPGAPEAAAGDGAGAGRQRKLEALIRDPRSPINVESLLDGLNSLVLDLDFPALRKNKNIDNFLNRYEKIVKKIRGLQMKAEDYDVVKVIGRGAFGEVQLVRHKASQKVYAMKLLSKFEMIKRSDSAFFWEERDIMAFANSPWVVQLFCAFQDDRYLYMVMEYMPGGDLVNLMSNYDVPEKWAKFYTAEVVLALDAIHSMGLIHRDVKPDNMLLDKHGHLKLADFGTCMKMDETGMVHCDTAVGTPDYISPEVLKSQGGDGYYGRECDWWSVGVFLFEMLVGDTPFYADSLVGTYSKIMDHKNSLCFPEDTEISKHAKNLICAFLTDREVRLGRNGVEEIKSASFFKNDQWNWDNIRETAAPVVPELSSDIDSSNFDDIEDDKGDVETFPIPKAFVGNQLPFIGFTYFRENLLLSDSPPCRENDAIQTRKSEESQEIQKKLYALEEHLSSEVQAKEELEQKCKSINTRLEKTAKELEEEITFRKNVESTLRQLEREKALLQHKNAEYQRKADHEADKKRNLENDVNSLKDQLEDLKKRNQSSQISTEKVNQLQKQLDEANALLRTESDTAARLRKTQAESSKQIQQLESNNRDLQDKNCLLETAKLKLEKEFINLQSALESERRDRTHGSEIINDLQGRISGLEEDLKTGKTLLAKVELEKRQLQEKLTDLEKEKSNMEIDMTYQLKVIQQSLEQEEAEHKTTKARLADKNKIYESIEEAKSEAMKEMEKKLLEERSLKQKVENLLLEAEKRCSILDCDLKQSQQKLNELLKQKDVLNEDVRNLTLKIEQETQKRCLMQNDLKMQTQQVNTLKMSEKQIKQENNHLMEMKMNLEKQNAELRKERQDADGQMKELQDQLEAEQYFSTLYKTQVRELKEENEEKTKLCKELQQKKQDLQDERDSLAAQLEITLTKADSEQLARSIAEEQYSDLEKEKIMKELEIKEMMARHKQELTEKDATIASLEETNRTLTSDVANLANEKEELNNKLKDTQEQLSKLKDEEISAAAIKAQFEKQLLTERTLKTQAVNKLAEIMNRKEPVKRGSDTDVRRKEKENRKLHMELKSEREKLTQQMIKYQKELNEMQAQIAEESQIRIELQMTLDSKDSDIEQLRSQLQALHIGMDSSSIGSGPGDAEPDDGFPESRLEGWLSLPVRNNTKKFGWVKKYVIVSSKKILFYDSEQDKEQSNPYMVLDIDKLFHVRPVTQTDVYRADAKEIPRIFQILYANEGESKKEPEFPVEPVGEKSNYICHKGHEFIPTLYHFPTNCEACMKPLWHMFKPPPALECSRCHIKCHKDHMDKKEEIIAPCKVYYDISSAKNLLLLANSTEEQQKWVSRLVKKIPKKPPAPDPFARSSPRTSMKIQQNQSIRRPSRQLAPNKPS
UniProt Q16816, sequence (whole entry, looked up): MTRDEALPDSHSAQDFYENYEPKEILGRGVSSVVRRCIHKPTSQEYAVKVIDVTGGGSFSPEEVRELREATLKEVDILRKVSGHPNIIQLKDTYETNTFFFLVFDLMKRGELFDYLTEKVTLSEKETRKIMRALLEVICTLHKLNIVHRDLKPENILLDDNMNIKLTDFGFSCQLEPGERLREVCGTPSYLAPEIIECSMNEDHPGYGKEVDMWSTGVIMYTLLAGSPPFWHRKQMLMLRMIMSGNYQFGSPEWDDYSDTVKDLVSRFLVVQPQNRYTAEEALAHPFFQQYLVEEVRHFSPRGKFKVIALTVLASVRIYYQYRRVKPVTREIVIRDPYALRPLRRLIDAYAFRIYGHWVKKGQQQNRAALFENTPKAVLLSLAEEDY
UniProt Q15835, sequence (whole entry, looked up): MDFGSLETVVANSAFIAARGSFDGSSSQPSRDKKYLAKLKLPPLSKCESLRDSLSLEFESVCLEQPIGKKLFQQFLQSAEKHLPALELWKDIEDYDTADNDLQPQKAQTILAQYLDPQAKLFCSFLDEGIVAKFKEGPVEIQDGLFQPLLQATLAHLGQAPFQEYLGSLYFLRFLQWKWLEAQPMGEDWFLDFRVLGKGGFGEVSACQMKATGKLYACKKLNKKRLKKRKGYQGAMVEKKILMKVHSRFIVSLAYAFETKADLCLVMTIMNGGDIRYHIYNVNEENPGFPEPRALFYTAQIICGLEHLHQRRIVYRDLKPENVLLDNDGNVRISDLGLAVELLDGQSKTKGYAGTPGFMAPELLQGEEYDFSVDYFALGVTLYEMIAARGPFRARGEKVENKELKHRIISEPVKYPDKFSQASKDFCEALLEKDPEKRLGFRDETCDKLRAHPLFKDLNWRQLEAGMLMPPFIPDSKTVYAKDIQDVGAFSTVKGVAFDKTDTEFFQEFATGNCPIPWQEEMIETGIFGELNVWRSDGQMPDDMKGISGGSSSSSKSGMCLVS
UniProt Q8IW41, sequence (whole entry, looked up): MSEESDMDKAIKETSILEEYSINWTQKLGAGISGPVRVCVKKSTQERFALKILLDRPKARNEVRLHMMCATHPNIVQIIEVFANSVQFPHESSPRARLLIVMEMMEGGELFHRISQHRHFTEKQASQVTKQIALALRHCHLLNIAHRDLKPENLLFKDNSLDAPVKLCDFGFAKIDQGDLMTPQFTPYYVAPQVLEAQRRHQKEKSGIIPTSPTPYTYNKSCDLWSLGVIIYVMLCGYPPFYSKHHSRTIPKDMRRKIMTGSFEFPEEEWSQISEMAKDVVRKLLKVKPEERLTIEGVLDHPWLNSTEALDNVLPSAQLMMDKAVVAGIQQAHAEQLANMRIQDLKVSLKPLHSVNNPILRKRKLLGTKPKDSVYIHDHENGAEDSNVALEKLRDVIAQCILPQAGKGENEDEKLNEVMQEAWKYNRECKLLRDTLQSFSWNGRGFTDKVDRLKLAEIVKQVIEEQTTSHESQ

| Structure (SMILES) | target or system | test | setting | measurement | result |
| --- | --- | --- | --- | --- | --- |
| NC(=O)NOCCCCCCCCCCCCCCCC[P+](c1ccccc1)(c1ccccc1)c1ccccc1 | HCT-116 | cell growth or viability, imaging |  | IC50 | 500 nM |
| CC(=NNC(=O)COc1ccc2c(C)c(Cc3ccccc3)c(=O)oc2c1C)c1ccc(Br)cc1 | HCT-116 | cell growth or viability, MTT | 1.6 µg/mL | viability | 61.7% |
| COc1ccc2/c(=N/c3ccccc3NC(=O)[C@@H](N)C(C)(C)C)cc(-c3ccc4c(c3)OCCO4)oc2c1 | HCT-116 | cell growth or viability, CCK-8 | 1 µM | inhibition | 12.3% |
| COc1cc(-c2cncc3c2CN(C)Cc2cc(N4CCNCC4)ccc2-3)cc(OC)c1OC | Rock2 (Rattus norvegicus, UniProt Q62868) | enzyme activity, inhibitor | 1 µM | remaining activity | 92% |
| NCCC(=O)Nc1ccccc1/N=c1\cc(-c2ccc3nc(N)oc3c2)oc2ccccc12 | HCT-116 | cell growth or viability, CCK-8 | 1 µM | inhibition | 78.5% |
| COc1cccc2c1C(=O)c1c(O)c3c(c(O)c1C2=O)C[C@@](O)(C(=O)CO)C[C@@H]3O[C@H]1C[C@H](N)[C@H](O)[C@H](C)O1 | HCT-116 | cell growth or viability, WST-1 | 72 h | IC50 | 50 nM |
| CNc1ncc2c(/C=C/C(=O)N3CCC(OC)CC3)nn(Cc3cccc(C(F)(F)F)c3)c2n1 | PHKG1 (Homo sapiens, UniProt Q16816) | enzyme activity, inhibitor, radiometric | 1 µM | remaining activity | 93% |
| NC(=O)NOCCCCCCCCCC[P+](c1ccccc1)(c1ccccc1)c1ccccc1 | HCT-116 | cell growth or viability, imaging |  | IC50 | 8500 nM |
| COc1ccc(NC(=O)c2c(Nc3ccccc3)sc(C#N)c2NC(=O)CNc2ccc(O)cc2)cc1 | HCT-116 | cell growth or viability, SRB | 0.1 µM, 48 h | viability | 87.9% |
| NCC(=O)Nc1ccccc1/N=c1\cc(-c2ccc3c(c2)OCCO3)oc2cc(F)ccc12 | HCT-116 | cell growth or viability, CCK-8 | 1 µM | inhibition | 4.37% |
| C=CC(=O)N1CCC(COCC(=O)N2CCN(c3nc(-c4cnc(N)nc4C(F)F)nc(N4CCOC[C@@H]4C)n3)CC2)CC1 | GRK1 (Homo sapiens, UniProt Q15835) | binding, competition with immobilised ligand | 1 µM | remaining binding | 100% |
| CCCCC(=O)Nc1ccc(-c2ccc3ncn(CCC)c(=O)c3c2)cn1 | MAPKAPK5 (Homo sapiens, UniProt Q8IW41) | binding, competition with immobilised ligand | 0.5 µM | remaining binding | 72% |
| COc1ccc(NC(=O)c2c(Nc3ccccc3)sc(C#N)c2NC(=O)CNc2ccc(Cl)cc2)cc1 | HCT-116 | cell growth or viability, SRB | 10 nM, 48 h | viability | 85.2% |

Excerpt of the above:
| Structure (SMILES) | target or system | test | setting | measurement | result |
| --- | --- | --- | --- | --- | --- |
| CCCCC(=O)Nc1ccc(-c2ccc3ncn(CCC)c(=O)c3c2)cn1 | MAPKAPK5 (Homo sapiens, UniProt Q8IW41) | binding, competition with immobilised ligand | 0.5 µM | remaining binding | 72% |
| COc1cccc2c1C(=O)c1c(O)c3c(c(O)c1C2=O)C[C@@](O)(C(=O)CO)C[C@@H]3O[C@H]1C[C@H](N)[C@H](O)[C@H](C)O1 | HCT-116 | cell growth or viability, WST-1 | 72 h | IC50 | 50 nM |
